# Results collected from several papers.
# A part holds a random share of what one study measured. Positions count from the first letter of the parent shown.

# Study 1 — technique: competition protein-binding microarray; molecule type: double-stranded DNA, one strand shown; matrix: in vitro; tested at: 2 µM; together with: Cbf1 competitor, 0.05 µM; direction: higher = stronger binding; shared flanks, not repeated: … GTCTTGATTCGCTTGACGCTGCTG
# Target: Phosphate system positive regulatory protein PHO4, full length, GST-tagged (PHO4, Saccharomyces cerevisiae, UniProt P07270, residues 1-312)
# Setting: whole 60-bp probe, lowest competitor level
# Target sequence (chain): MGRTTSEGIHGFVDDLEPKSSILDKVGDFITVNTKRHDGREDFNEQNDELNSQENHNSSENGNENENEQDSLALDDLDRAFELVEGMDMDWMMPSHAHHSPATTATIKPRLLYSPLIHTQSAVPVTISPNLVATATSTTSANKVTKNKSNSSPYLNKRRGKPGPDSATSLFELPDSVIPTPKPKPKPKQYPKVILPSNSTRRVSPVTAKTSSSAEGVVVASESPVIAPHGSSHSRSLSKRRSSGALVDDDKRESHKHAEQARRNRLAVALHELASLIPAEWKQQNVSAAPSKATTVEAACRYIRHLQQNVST
Oligonucleotide,fluorescence intensity
CGTCCTAGTGATTGTCACGTGTTTTCCATGAGGAAG,15800 a.u.
GTATTATATGATGTATTCGTGCCAGTATCATGCATA,8010 a.u.
TAACCTTAATTAATGCCCGTGCCAGGATGATTGCAT,9870 a.u.
TGTTGCCAACCATGCTGCGTGCCGAATTAGGCCTAT,8220 a.u.
CGGGGTTAAGTTTGTCACGTAACTTGCTTGCAGCAG,4230 a.u.
CATACCCAACCTTTTCACGTGTATTAAGATATTTGT,14400 a.u.
CTCTGCGGTGGCAGCAACGTGACGGTATAGTGTGTA,12700 a.u.
TGCGCAACAACTTGATTAGTGGGTGTATGTCTAGAA,3980 a.u.

# Study 2 — target: CCND3, cyclin fold, Cln2 fusion (human); technique: yeast growth competition, sequencing; matrix: yeast; setting: weak parent motif; reference: not given; direction: higher = stronger binding; starting sequence: viral docking peptide; YKVKRRLVFGADD
Variant,normalised enrichment score
YKVKRTLVFGADD [R6T],-0.11
YKVKRRWVFGADD [L7W],-0.0462
YFVKRRLVFGADD [K2F],0.3
YKVKRRLVTGADD [F9T],0.325
YKVKRRLVFNADD [G10N],0.378
YKVVRRLVFGADD [K4V],-0.556
YKVKDRLVFGADD [R5D],0.0196
YKVGRRLVFGADD [K4G],0.249
YKVARRLVFGADD [K4A],0.209
YKVKRRLEFGADD [V8E],0.519
YKVKRRLKFGADD [V8K],0.853
YKVKRRLMFGADD [V8M],0.148
YMVKRRLVFGADD [K2M],0.213
YKVKRRLVFGAKD [D12K],-0.136
YKVKPRLVFGADD [R5P],-0.115
YKVKRRLVFGAQD [D12Q],0.0467
YKVKRRLVFGAAD [D12A],0.0404
YWVKRRLVFGADD [K2W],0.366
YKVKRRLVFGWDD [A11W],0.437
YKVKRRPVFGADD [L7P],0.316
YKVKRRLVSGADD [F9S],0.0294
YKFKRRLVFGADD [V3F],0.401
YKVKRRLVFGPDD [A11P],0.306
YKVKRRLVKGADD [F9K],0.0428
YKVKRRLVYGADD [F9Y],0.448

# Study 3 — target: UBE2A UBC core domain (UniProt P49459); technique: yeast two-hybrid; matrix: yeast; setting: mostly zero background; reference: not given; direction: higher = stronger interaction
# Sequence of UniProt P49459 (whole entry, looked up): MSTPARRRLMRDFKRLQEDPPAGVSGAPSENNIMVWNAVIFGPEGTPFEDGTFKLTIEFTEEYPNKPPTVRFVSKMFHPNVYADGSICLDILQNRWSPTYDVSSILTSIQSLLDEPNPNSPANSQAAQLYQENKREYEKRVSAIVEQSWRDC
# B1: HLTF RING domain (UniProt Q14527); chain LILSSGSDEECAICLDSLTVPVITHCAHVFCKPCICQVIQNEQPHAKCPLCRNDIHEDNLLE
# B2: BFAR RING domain (UniProt Q9NZS9); chain GPQISVSEFSCHCCYDILVNPTTLNCGHSFCRHCLALWWASSKKTECPECREKWEGFPKVS
# B3: MID2 RING domain (UniProt Q9UJV3); chain KMETLESELTCPICLELFEDPLLLPCAHSLCFSCAHRILVSSCSSGESIEPITAFQCPTCRYVISLNHRGL
# B4: VPS8 RING domain (UniProt Q8N3P4); chain TRGLNPKQDYCSICLQQYKRRQEMADEIIVFSCGHLYHSFCLQNKECTVEFEGQTRWTCYKCSSSNKVGKLSE
# B5: MKRN3 RING domain (UniProt Q13064); chain FAVQRGMDKVCGICMEVVYEKANPNDRRFGILSNCNHSFCIRCIRRWRSARQFENRIVKSCPQCRVTSELVIPSE
# B6: NFX1 RING domain (UniProt Q12986); chain IEQLTTEKYECMVCCELVRVTAPVWSCQSCYHVFHLNCIKKWARSPASQADGQSGWRCPACQNVSAHVPNTY
# B7: RING1 RING domain (UniProt Q06587); chain SPRSLHSELMCPICLDMLKNTMTTKECLHRFCSDCIVTALRSGNKECPTCRKKLVSKRSLR
# B8: TRIM41 RING domain (UniProt Q8WV44); chain PVQTLQEEAVCAICLDYFTDPVSIGCGHNFCRVCVTQLWGGEDEEDRDELDREEEEEDGEEE
# B9: ZMYND11 RING domain (UniProt Q15326); chain DEIDWETENHDWYCFECHLPGEVLICDLCFRVYHSKCLSDEFRLRDSSSPWQCPVCRSIKKKNTNKQEM
Molecule,lacZ reporter activity
B1 (HLTF RING domain),0
B2 (BFAR RING domain),0
B3 (MID2 RING domain),0
B4 (VPS8 RING domain),0
B5 (MKRN3 RING domain),0
B6 (NFX1 RING domain),0
B7 (RING1 RING domain),0
B8 (TRIM41 RING domain),0
B9 (ZMYND11 RING domain),0
LVKDFNPYITCYICKGYLIKPTTVTECLHTFCKTCIVQHFEDSNDCPRCGNQVHETNPLE (PCGF5 RING domain (UniProt Q86SE9)),0

# Study 4 — observed: peptide-MHC binding; molecule type: peptide; tested at: concentration not given
# Target: HLA class I histocompatibility antigen, A alpha chain, allele A*25:01 (Homo sapiens, UniProt P04439)
Molecule,binding
LPLESCFGV,inactive
SKLRALLTL,inactive
VTENKKIQY,inactive
FMSRKLHRY,inactive
AKATGRYNL,inactive
DEEAINLFH,inactive
AENCYNLEI,inactive
DEQEFFYSQ,inactive

# Some of these lines once more (study 3):
Molecule,lacZ reporter activity
B5 (MKRN3 RING domain),0
B3 (MID2 RING domain),0
B7 (RING1 RING domain),0
LVKDFNPYITCYICKGYLIKPTTVTECLHTFCKTCIVQHFEDSNDCPRCGNQVHETNPLE (PCGF5 RING domain (UniProt Q86SE9)),0
B9 (ZMYND11 RING domain),0
B6 (NFX1 RING domain),0
